Measurements pooled from the literature.
Every numbered part comes from another study and shows a few of its results, in no order.

Sample 1
Target: Sal-like protein 4, full length isoform A (SALL4, Homo sapiens, UniProt Q9UJQ4, residues 1-1053)
UniProt Q9UJQ4, sequence (whole entry, looked up): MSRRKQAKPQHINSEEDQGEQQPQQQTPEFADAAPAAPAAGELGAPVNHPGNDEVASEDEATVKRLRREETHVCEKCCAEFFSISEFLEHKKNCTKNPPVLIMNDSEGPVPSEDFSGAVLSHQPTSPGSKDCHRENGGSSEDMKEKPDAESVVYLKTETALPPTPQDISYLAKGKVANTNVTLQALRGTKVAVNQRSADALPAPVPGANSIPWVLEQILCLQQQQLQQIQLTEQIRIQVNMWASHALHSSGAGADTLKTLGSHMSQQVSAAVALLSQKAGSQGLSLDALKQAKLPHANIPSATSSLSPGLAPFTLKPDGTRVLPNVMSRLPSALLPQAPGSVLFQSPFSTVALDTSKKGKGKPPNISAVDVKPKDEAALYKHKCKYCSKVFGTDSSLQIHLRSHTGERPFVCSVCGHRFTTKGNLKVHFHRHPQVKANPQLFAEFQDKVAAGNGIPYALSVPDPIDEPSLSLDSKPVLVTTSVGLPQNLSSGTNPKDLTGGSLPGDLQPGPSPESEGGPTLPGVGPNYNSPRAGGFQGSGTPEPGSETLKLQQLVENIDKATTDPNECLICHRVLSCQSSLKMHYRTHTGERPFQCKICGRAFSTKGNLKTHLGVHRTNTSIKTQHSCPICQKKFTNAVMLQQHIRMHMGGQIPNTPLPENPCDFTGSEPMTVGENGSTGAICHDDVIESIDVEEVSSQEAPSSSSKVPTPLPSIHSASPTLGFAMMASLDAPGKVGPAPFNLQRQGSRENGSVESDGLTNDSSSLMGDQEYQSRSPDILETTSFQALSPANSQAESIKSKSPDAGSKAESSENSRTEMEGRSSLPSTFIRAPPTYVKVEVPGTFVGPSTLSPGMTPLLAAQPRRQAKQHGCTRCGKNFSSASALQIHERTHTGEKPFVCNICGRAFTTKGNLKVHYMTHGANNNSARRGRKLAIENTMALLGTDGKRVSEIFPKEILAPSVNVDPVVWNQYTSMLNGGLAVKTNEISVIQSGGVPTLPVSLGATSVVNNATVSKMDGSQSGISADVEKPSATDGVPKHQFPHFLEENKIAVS
Technique: universal PBM
Form: double-stranded DNA, one strand shown
Matrix: in vitro
Concentration: 600 nM
Setting: 8-mer, flanks averaged, mean of replicates
Direction: higher = stronger binding
Strand | E-score
TCTACTAA | 0.214
AACTCTTC | -0.101
ACTGACCA | -0.189
CATCACAG | 0.039
CTCCCCAC | -0.186
GCTTAGAC | -0.0827
AGTCGCCA | -0.317
ATCGCCTG | -0.313

Sample 2
Target: RING finger protein unkempt homolog, zinc fingers 1-6, GST-SBP tag (UNK, Homo sapiens, UniProt Q9C0B0, residues 30-357)
UniProt Q9C0B0, sequence (30-357, looked up): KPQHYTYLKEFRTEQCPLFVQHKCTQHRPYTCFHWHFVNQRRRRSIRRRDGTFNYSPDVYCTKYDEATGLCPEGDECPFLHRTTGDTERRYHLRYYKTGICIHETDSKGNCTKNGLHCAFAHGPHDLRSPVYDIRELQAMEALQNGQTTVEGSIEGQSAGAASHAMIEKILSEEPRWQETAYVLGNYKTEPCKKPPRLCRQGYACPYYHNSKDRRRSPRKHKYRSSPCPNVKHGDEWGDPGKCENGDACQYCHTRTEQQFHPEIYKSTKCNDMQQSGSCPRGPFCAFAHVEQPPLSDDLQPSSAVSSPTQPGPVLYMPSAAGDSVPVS
Technique: RNA Bind-n-Seq
Form: RNA
Matrix: in vitro
Concentration: not given
Setting: RNA with constant flanks, human and mouse sites, ends assumed
Reference: input RNA pool
Direction: higher = stronger binding
Shared flanks, not repeated: GGGAGUUCUACAGUCCGACGAUC … CAACAGAGGAUUGAGCAUCA
Strand | bound/input enrichment [ratio]
CACAAGAAGCGGAUCCAGGAAGUUGGUGAACCAUCUAAAGAAGAGAAGGCUGUGGCCAAGUAUCUUCGAUUCAACUGUCCAACAAAGUCCACCAAUAUGAUGGGUCACCGGGUUGAUUAU | 0.114
AGAGACUUUGUGAGAGAUGCUACGUGGUCUCCACUCAAUCACUCCCUUCUUACCACAGUUGGCUGGGACCAUCAGGUCAUCCACCAUGUUGUGCCCUUAGAGCCUCUCCCAAACCCUGGA | 0.338
UUAAUUUAUAUGAAGUUUGAUUUUUUAAAAAAUACCUGAAUUAUUAUUGCCUGCCCUGGCUAGUUUUAUAUCAACUUGAUACAAGCUAGAGUCAUUUGGGGAGAGGGACUCUGAAUUGAG | 1.01
CGUCUUAAUUAUGCGCAGUGGUAUCCAAUUGUUGUGUUCCUUAACCCUGACUCUAAGCAAGGUGUAAAAACAAUGAGGAUGAGGUUGUGUCCGGAGUCUCGGAAAAGCGCCAGGAAGCUA | 0.414
GACAUGAUAACUAAAUUUGAAGAUUCUGAGGAAAUUUCUUCAUCAACUUAUUUUCCAGGCAGCAUUAUAGACUAUCCAGAAGAAAUAAGUGUAUCUUUAGAUCGGACUGCCCCACCAGAU | 0.219
GUCCUCCUUCAUUUUAAGGGUUAUUCCCAUUGUAUUGAUGUUUAUAUAAAGCAGUGCCAGGAGGGUGCUUACUUGAGAAAUGACAUAUUUGAAGAUGCAGCAAUACUCUGUCAGCGAGUG | 0.3
UUUUUUAUUAAAAUUAUUUUUCCUGCCUGUUGUUGGAUUUGGGGAAAUUUUUUGUUUGUUUUUUAUGAUUUGUAUUUGACUGAGAGAAACCCACUGAAGACGUCUGCGUGAGAAUAGAGA | 0.58

Sample 3
Target: Histone acetyltransferase KAT6A, winged helix 2, GST fusion (KAT6A, Homo sapiens, UniProt Q92794, residues 85-181)
Technique: protein binding microarray
Form: double-stranded DNA, one strand shown
Matrix: in vitro
Concentration: not given
Setting: 8-mer, flanks averaged, mean of 2 arrays, mostly near background
Reference: not given
Direction: higher = stronger binding
Target sequence (chain): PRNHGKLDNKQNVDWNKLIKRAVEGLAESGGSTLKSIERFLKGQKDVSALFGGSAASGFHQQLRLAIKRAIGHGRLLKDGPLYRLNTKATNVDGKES
Strand | E-score
CGCAATCA | 0.165
CAACGGGC | 0.0796
AAACCTCT | -0.0234
CGCAGTGC | 0.131
GAGGGTGA | 0.0296
ATCTGTGC | -0.127

Mixed results
Molecule | target | test | test system | setting | how to read | endpoint | result
PhoQ, residues 284 288 289 292 302 303 NLMGRA | PhoP, residues 12 14 15 18 19 TQAIL (Escherichia coli, UniProt P23836) | Sort-seq, refers to: YFP reporter | E. coli | PhoQ-PhoP variant library, with: 10 µM Mg2+ | reference: high Mg2+ state, higher = stronger signaling | fold induction | 18.4

Repeated from above (sample 1):
Strand | E-score
AACTCTTC | -0.101
ACTGACCA | -0.189
ATCGCCTG | -0.313
